# Results gathered from unrelated publications.
# A part holds a random share of what one study measured.

# Sample 1
# Target: TAR DNA-binding protein 43, full length, His tag (TARDBP, Homo sapiens, UniProt Q13148, residues 1-414)
# Technique: RNA Bind-n-Seq
# Form: RNA
# Matrix: in vitro
# Concentration: 20 nM
# Setting: 6-mer, flanks averaged, single round
# Added: 150 mM LiCl
# Relative to: input library
# Direction: higher = stronger binding
Sequence,6-mer enrichment (R)
ACCCAG,0.902
CACAUA,0.89
GUGACA,0.972

# Sample 2
# Target: Sal-like protein 4, full length isoform B (SALL4, Homo sapiens, UniProt Q9UJQ4-2, residues 1-616)
# Technique: universal PBM
# Form: double-stranded DNA, one strand shown
# Matrix: in vitro
# Concentration: not given
# Setting: 8-mer, flanks averaged, mean of replicates
# Direction: higher = stronger binding
Sequence,E-score
GACTACGC,-0.129
CCCAGAAA,-0.128
ATGGGGGA,0.00472
CCTTAAGA,0.126
CGCCCTGC,-0.28
AACCTCGG,-0.192

# Sample 3
# Target: Interferon regulatory factor 5, full length, phosphomimetic (IRF5, Homo sapiens, UniProt Q13568-2, residues 1-514, S451D/S453D/S456D/S462D)
# Technique: protein-binding microarray
# Form: double-stranded DNA, one strand shown
# Matrix: in vitro
# Concentration: 940 nM top
# Setting: 60-bp whole probe
# Added: salmon DNA 0.4 mg/ml
# Relative to: random background probes
# Direction: higher = stronger binding
# All sequences stand within: GCCTAGCAC … GTGCTAGGTCTTGATTCGCTTGACGCTGCTG
Sequence,fitted relative affinity [z-score]
TTAGATTTCAGTTTCGATTG,9.19
GACAGTATCCTACTGCTGAC,0.0977
GACGAGTTCAGACTGGAGAC,-0.307
TCACTATTATATATATCACT,0.839
GACGAACTGAGACTGGAGAA,-0.0739

# Mixed results
Substance,target,assay,test system,setting,scale,quantity,result
"PhoQ, residues 284 288 289 292 302 303 AGHLVA","PhoP, residues 12 14 15 18 19 SQCLL (Escherichia coli, UniProt P23836)","Sort-seq, item: YFP reporter",E. coli,"PhoQ-PhoP variant library, added: 10 µM Mg2+","relative to: high Mg2+ state, higher = stronger signaling",fold induction,16.6

# For quick reference, copied from above (sample 2):
Sequence,E-score
GACTACGC,-0.129
CCCAGAAA,-0.128
